Measurements pooled from the literature.
Compare with care: the assays were run in different laboratories. Several values in a cell are separate wells, animals, samples, runs or records. ± gives the spread as reported.
UniProt P06276, sequence (whole entry, looked up): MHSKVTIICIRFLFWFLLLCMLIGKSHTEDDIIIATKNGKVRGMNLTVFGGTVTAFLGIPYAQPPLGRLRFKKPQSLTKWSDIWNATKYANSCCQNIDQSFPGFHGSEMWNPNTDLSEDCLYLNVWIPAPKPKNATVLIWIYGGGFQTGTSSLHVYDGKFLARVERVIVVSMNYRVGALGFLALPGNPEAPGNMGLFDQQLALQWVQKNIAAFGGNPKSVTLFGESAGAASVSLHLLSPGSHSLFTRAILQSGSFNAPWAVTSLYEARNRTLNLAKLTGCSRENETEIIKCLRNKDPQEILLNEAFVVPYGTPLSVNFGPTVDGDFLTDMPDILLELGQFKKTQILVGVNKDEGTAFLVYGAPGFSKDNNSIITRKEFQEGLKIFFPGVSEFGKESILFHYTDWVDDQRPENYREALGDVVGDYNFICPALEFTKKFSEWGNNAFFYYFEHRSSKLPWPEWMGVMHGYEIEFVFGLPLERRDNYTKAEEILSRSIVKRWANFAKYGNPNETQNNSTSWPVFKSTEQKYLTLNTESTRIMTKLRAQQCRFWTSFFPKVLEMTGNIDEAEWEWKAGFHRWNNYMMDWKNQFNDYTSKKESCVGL

Structure (SMILES)	target or system	assay	test system	setting	how to read	measurement	value
CC(c1ccccc1)(c1ccc(O)cc1)c1ccc(O)cc1	HepG2 spheroids, dissociated	annexin V-FITC/PI flow cytometry		0.1 µM, 24 h		viable cells	73.5 ± 8.14%
CC(C)n1cnc2c(NCCc3ccc(O)cc3)nc(-c3csc4ccccc34)nc21	Cholinesterase (BCHE, Homo sapiens, UniProt P06276)	inhibitor				IC50	3.85 µM
N#C[C@@]1(n2ccc(N)nc2=O)O[C@H](CO)[C@@H](O)[C@H]1O	CHO			8 µM, without S9		micronucleated cells	0.32%
CC[C@H](C)[C@H](NC(=O)[C@H](CCCCN)NC(=O)[C@H](CO)NC(=O)CNC(=O)[C@H](CC(C)C)NC(=O)[C@@H](N)Cc1c[nH]c2ccccc12)C(=O)N[C@@H](CCCCN)C(=O)N[C@@H](C)C(=O)N[C@@H](C)C(=O)N[C@@H](CCCCN)C(=O)N[C@@H](CCSC)C(=O)N[C@@H](CCCCN)C(=O)N[C@H](C(=O)NCC(=O)N[C@@H](CCSC)C(=O)N[C@@H](Cc1c[nH]c2ccccc12)C(=O)NCC(=O)N[C@@H](C)C(=O)N[C@H](C(=O)NCC(=O)N[C@@H](CC(C)C)C(=O)N[C@@H](CCCNC(=N)N)C(=O)N[C@@H](Cc1c[nH]cn1)C(=O)N[C@@H](CC(N)=O)C(=O)O)C(C)C)C(C)C	HUVEC	cytotoxicity, MTT		24 h, 37 °C		IC50	> 200 µM
N=C(N)NCCC[C@H](NC(=O)[C@H](Cc1c[nH]c2ccccc12)NC(=O)[C@H](CCCNC(=N)N)NC(=O)[C@H](Cc1c[nH]c2ccccc12)NC(=O)[C@H](Cc1c[nH]c2ccccc12)NC(=O)[C@H](Cc1c[nH]c2ccccc12)NC(=O)[C@H](CCCNC(=N)N)NC(=O)[C@H](Cc1c[nH]c2ccccc12)NC(=O)[C@@H](N)CCCNC(=N)N)C(=O)N[C@@H](Cc1ccccc1)C(N)=O	PK-15					LC50	> 512 µM
Cn1c(C(=O)Nc2ccc3c(c2)OCCO3)cc2c(=O)n3ccccc3nc21	Vero	MTT		25 µM, 24 (unit not given)		viability	55.3%
CNS(=O)(=O)c1ccc(CCNC(=O)c2cc(Cl)ccc2OC)cc1	THP-1 ASC-GFP monocytes	MTT		24 h		maximum tolerated dose	1.56 µg/mL
C[S+](C)[O-]	U138	MTS		4 days		CC50	1.38%
Cc1ccc(NC(=O)c2cc3c(=O)n4cccc(C)c4nc3n2C)cc1Cl	Vero	MTT		6.3 µM, 24 (unit not given)		viability	66.6%
CC1Cc2cc3c(cc2C(c2ccc(N)cc2)=NN1)OCO3 (centres unmarked)	Plasmodium falciparum		7G8			IC50	12.6 µM
CC(=O)c1c(O)c(C)c(O)c2c1OC1=CC(=O)C(=C(C)NCCCC(=O)O)C(=O)C12C (centres unmarked)	L6 rat skeletal myoblasts	cytotoxicity, Alamar Blue				IC50	39.8 µM
O=S(=O)(c1ccc(O)cc1)c1ccc(O)cc1	HepG2 spheroids, dissociated	annexin V-FITC/PI flow cytometry		10 µM, 96 h		early apoptotic cells	6.28 ± 3.58%
CC[C@H](C)[C@H](N)C(=O)N[C@H](C(=O)N[C@@H](C)C(=O)N[C@H](C(=O)N[C@H](C(=O)N[C@@H](CCCNC(=N)N)C(=O)N[C@@H](Cc1ccccc1)C(=O)N[C@@H](CO)C(=O)N[C@@H](CCCNC(=N)N)C(=O)N[C@@H](CCCNC(=N)N)C(=O)N[C@@H](CCCCN)C(=O)N[C@H](C(=O)N1CCC[C@H]1C(=O)N[C@@H](Cc1c[nH]c2ccccc12)C(=O)N[C@@H](CCC(N)=O)C(=O)N[C@@H](CCC(N)=O)C(=O)N[C@@H](CC(N)=O)C(=O)N[C@@H](Cc1ccccc1)C(=O)N[C@H](C(=O)N[C@@H](CC(N)=O)C(=O)N[C@@H](CC(N)=O)C(=O)N[C@@H](Cc1c[nH]cn1)C(=O)N[C@@H](CC(N)=O)C(=O)N1CCC[C@H]1C(=O)N[C@@H](CCCCN)C(=O)NCC(=O)N[C@@H](CCCNC(=N)N)C(=O)N[C@@H](CC(C)C)C(=O)N[C@@H](CCCNC(=N)N)C(=O)N[C@@H](CC(N)=O)C(=O)N[C@@H](CCC(N)=O)C(=O)N[C@@H](Cc1c[nH]cn1)C(=O)N[C@@H](CCCCN)C(=O)N[C@H](C(=O)N[C@@H](CO)C(=O)N[C@@H](CC(C)C)C(=O)N[C@@H](CCC(N)=O)C(=O)N[C@@H](CCCCN)C(=O)N[C@@H](CO)C(=O)N[C@H](C(=O)N[C@@H](C)C(=O)N[C@H](C(=O)N[C@@H](CCSC)C(=O)N[C@@H](CC(C)C)C(=O)N1CCC[C@H]1C(=O)N[C@@H](CCCCN)C(=O)O)C(C)C)[C@@H](C)O)C(C)C)C(C)C)[C@@H](C)CC)[C@@H](C)O)[C@@H](C)CC)[C@@H](C)CC	PMA-differentiated THP-1	cell viability, MTT		24 h		CC50	104 µM
CCCc1nc(N)[nH]c(=O)c1Br	HeLa	cell morphology alteration				minimum cytotoxic concentration	> 100 µM
CC(=O)c1cccc(NC(=O)c2cc3c(=O)n4ccccc4nc3n2C)c1	Vero	MTT		0.4 µM, 24 (unit not given)		viability	93.2%
CC[C@H](C)[C@H](N)C(=O)N[C@H](C(=O)N[C@@H](Cc1ccccc1)C(=O)N[C@@H](Cc1c[nH]cn1)C(=O)N[C@H](C(=O)N[C@@H](CCCCN)C(=O)N[C@@H](CCCCN)C(=O)N[C@@H](CCCCN)C(=O)N[C@@H](CC(C)C)C(=O)N[C@@H](CO)C(=O)N[C@H](C(=O)N[C@@H](CS)C(=O)N[C@@H](C)C(=O)N[C@@H](CC(N)=O)C(=O)N1CCC[C@H]1C(=O)N[C@@H](CCCCN)C(=O)N[C@@H](CCC(N)=O)C(=O)N[C@H](C(=O)N[C@@H](Cc1c[nH]c2ccccc12)C(=O)N[C@H](C(=O)N[C@@H](CCCCN)C(=O)N[C@@H](Cc1ccc(O)cc1)C(=O)N[C@H](C(=O)N[C@H](C(=O)N[C@@H](CCCNC(=N)N)C(=O)N[C@@H](CC(C)C)C(=O)N[C@@H](CC(C)C)C(=O)N[C@@H](CO)C(=O)N[C@@H](CCCCN)C(=O)N[C@@H](CCCCN)C(=O)N[C@H](C(=O)N[C@@H](CCCCN)C(=O)O)C(C)C)C(C)C)[C@@H](C)CC)C(C)C)[C@@H](C)O)C(C)C)[C@@H](C)O)[C@@H](C)CC	PMA-differentiated THP-1	cell viability, MTT		24 h		CC50	9.69 µM

Structure (SMILES)	target or system	assay	test system	setting	how to read	measurement	value
C[C@H](NC(=O)[C@H](CCCNC(=N)N)NC(=O)[C@H](Cc1c[nH]c2ccccc12)NC(=O)[C@H](CCCNC(=N)N)NC(=O)[C@H](Cc1c[nH]c2ccccc12)NC(=O)[C@H](Cc1c[nH]c2ccccc12)NC(=O)[C@H](Cc1c[nH]c2ccccc12)NC(=O)[C@H](CCCNC(=N)N)NC(=O)[C@H](Cc1c[nH]c2ccccc12)NC(=O)[C@@H](N)CCCNC(=N)N)C(N)=O	PK-15					LC50	> 512 µM
CC[C@H](C)[C@H](NC(=O)[C@H](CCC(=O)O)NC(=O)[C@H](Cc1ccccc1)NC(=O)[C@H](CO)NC(=O)[C@H](CCCCN)NC(=O)[C@H](CCCCN)NC(=O)[C@H](CC(C)C)NC(=O)[C@H](CCCNC(=N)N)NC(=O)[C@H](CC(C)C)NC(=O)[C@@H]1CCCN1C(=O)[C@@H]1CCCN1C(=O)[C@@H](N)Cc1c[nH]cn1)C(=O)N[C@@H](CC(C)C)C(=O)N[C@H](C(=O)N[C@@H](CCCNC(=N)N)C(=O)N[C@@H](CCCCN)C(=O)N1CCC[C@H]1C(=O)N[C@@H](CCSC)C(=O)N[C@@H](CO)C(=O)N[C@@H](CO)C(=O)N[C@@H](CCCCN)C(=O)N1CCC[C@H]1C(=O)N[C@@H](CCCCN)C(=O)N1CCC[C@H]1C(=O)N1CCC[C@H]1C(=O)N1CCC[C@H]1C(=O)N[C@@H](CCCNC(=N)N)C(=O)N[C@@H](CCCCN)C(=O)N[C@@H](Cc1ccc(O)cc1)C(=O)N[C@@H](Cc1ccccc1)C(=O)N[C@@H](CCCCN)C(=O)N[C@@H](CO)C(=O)O)C(C)C	PMA-differentiated THP-1	cell viability, MTT		24 h		CC50	59.4 µM
CC(C)C[C@H](NC(=O)[C@H](C)NC(=O)[C@@H](NC(=O)[C@H](CCCNC(=N)N)NC(=O)[C@H](CC(C)C)NC(=O)[C@H](Cc1c[nH]c2ccccc12)NC(=O)[C@@H]1CCCN1C(=O)[C@@H](N)CCCCN)C(C)C)C(=O)N[C@@H](CS)C(=O)N1CCC[C@H]1C(=O)NCC(=O)O	Vero	WST-1		16 µM, 24 h		viability	99.7% and 76.5% and 103%
C=C1CC[C@@H]2[C@](C)(CO)[C@H](O)CC[C@@]2(C)[C@@H]1C/C=C1/C(=O)OC[C@H]1O	AREc32	cytotoxicity		24 h	baseline: baseline IC10 over IC10	toxic ratio	8.4
CC(C)C[C@H](NC(=O)OCc1ccccc1)C(=O)N[C@H](C=O)C[C@@H]1CCCNC1=O	RD	cytotoxicity				CC50	> 100 µM
O=C(CC1NCCCC1O)Cn1cnc2cc(Br)c(Cl)cc2c1=O (centres unmarked)	pigeon embryo fibroblasts					CC50	0.5 µM
Cc1cc(C(C)(C)c2ccc(O)c(C)c2)ccc1O	HepG2 spheroids	annexin V-FITC/PI flow cytometry		40 µM, 24 h		necrotic cells	5.49 ± 1.49%
COc1ccc(CCN(C)CCCC(C#N)(c2ccc(OC)c(OC)c2)C(C)C)cc1OC (centres unmarked)	Plasmodium falciparum		7G8			IC50	6.31 µM
O=c1ccc2ccccc2o1	NHEK	ER stress, refers to: BiP		concentration not given, 24 h		chance response	0%
Cc1cccn2c(=O)c3cc(C(=O)Nc4ccc(N(C)C)cc4)n(C)c3nc12	Vero	MTT		100 µM, 24 (unit not given)		viability	49.1%
N=C(N)NCCC[C@H](NC(=O)CN)C(=O)N[C@@H](Cc1c[nH]c2ccccc12)C(=O)N[C@@H](CCCNC(=N)N)C(=O)N[C@@H](Cc1c[nH]c2ccccc12)C(=O)N[C@@H](Cc1c[nH]c2ccccc12)C(=O)N[C@@H](Cc1c[nH]c2ccccc12)C(=O)N[C@@H](CCCNC(=N)N)C(=O)N[C@@H](Cc1c[nH]c2ccccc12)C(=O)N[C@@H](CCCNC(=N)N)C(=O)N[C@@H](Cc1c[nH]c2ccccc12)C(N)=O	PK-15					LC50	102 µM
CCCCCc1nc(N)[nH]c(=O)c1Br	HeLa	cell morphology alteration				minimum cytotoxic concentration	20 µM
CC(C)(c1ccc(O)cc1)c1ccc(O)cc1	HepG2 spheroids, dissociated	annexin V-FITC/PI flow cytometry		1 µM, 24 h		late apoptotic cells	4.31 ± 1.49%
Cn1c(C(=O)Nc2ccc(Cl)cc2)cc2c(=O)n3ccccc3nc21	Vero	MTT		100 µM, 24 (unit not given)		viability	52.4%
Oc1ccc(C(c2ccc(O)cc2)(C(F)(F)F)C(F)(F)F)cc1	HepG2 spheroids	annexin V-FITC/PI flow cytometry		0.1 µM, 24 h		necrotic cells	8.07 ± 6.39%
C[C@@H]1O[C@@H](O[C@H]2C[C@@H](O)[C@]3(CO)[C@H]4[C@H](O)C[C@]5(C)[C@@H](C6=CC(=O)OC6)CC[C@]5(O)[C@@H]4CC[C@]3(O)C2)[C@H](O)[C@H](O)[C@H]1O	PH5CH8 hepatocytes	high-content cell count		72 h, oleate lipid loaded		CC50	0.023 µM

A few entries again:
Structure (SMILES)	target or system	assay	test system	setting	how to read	measurement	value
Cn1c(C(=O)Nc2ccc3c(c2)OCCO3)cc2c(=O)n3ccccc3nc21	Vero	MTT		25 µM, 24 (unit not given)		viability	55.3%
CNS(=O)(=O)c1ccc(CCNC(=O)c2cc(Cl)ccc2OC)cc1	THP-1 ASC-GFP monocytes	MTT		24 h		maximum tolerated dose	1.56 µg/mL
C[S+](C)[O-]	U138	MTS		4 days		CC50	1.38%
